# Assay results pooled from the literature.
# Numbered parts are unrelated; each lists some results of a single study. Values joined by “and” are separate records of one study, mostly repeats; a detail may differ.
# UniProt Q08345, sequence (whole entry, looked up): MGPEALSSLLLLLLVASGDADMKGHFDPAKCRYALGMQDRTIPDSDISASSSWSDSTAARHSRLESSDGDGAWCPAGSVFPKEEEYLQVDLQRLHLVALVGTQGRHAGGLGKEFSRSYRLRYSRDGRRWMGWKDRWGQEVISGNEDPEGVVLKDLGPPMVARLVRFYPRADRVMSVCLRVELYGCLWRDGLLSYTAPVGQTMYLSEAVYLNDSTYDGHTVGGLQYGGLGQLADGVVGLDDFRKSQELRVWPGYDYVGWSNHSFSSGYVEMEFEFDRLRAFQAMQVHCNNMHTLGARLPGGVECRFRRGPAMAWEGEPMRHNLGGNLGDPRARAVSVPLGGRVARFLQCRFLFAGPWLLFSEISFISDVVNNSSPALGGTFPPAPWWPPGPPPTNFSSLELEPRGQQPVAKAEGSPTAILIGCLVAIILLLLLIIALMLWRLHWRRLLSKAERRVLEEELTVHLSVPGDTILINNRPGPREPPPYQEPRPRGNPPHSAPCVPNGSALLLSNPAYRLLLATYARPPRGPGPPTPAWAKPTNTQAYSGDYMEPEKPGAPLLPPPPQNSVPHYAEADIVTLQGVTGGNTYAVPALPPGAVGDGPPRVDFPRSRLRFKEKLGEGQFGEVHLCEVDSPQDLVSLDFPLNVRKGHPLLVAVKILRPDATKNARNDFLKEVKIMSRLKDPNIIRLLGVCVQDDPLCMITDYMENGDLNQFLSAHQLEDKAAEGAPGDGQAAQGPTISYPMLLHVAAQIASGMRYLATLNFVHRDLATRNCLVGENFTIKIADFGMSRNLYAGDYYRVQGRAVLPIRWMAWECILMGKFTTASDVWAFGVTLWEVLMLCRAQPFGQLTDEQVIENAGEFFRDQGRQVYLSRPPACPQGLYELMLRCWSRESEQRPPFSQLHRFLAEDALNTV
# UniProt P21917, sequence (whole entry, looked up): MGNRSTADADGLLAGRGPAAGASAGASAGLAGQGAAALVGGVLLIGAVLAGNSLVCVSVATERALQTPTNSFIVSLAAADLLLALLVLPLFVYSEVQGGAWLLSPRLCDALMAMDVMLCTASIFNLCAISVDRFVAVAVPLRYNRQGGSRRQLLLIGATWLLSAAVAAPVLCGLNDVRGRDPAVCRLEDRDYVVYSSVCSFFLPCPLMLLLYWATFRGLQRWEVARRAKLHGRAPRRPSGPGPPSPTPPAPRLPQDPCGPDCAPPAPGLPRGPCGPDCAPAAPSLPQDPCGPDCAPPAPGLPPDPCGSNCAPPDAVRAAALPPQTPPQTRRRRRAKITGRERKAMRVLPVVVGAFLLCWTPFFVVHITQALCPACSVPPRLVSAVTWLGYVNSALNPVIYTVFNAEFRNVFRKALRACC

# Block 1 — effect on: enzyme activity; action: inhibitor; tested at: 0.5 µM; relative to: control
# Target: Activated CDC42 kinase 1 (TNK2, Homo sapiens, UniProt Q07912)
# UniProt Q07912, sequence (whole entry, looked up): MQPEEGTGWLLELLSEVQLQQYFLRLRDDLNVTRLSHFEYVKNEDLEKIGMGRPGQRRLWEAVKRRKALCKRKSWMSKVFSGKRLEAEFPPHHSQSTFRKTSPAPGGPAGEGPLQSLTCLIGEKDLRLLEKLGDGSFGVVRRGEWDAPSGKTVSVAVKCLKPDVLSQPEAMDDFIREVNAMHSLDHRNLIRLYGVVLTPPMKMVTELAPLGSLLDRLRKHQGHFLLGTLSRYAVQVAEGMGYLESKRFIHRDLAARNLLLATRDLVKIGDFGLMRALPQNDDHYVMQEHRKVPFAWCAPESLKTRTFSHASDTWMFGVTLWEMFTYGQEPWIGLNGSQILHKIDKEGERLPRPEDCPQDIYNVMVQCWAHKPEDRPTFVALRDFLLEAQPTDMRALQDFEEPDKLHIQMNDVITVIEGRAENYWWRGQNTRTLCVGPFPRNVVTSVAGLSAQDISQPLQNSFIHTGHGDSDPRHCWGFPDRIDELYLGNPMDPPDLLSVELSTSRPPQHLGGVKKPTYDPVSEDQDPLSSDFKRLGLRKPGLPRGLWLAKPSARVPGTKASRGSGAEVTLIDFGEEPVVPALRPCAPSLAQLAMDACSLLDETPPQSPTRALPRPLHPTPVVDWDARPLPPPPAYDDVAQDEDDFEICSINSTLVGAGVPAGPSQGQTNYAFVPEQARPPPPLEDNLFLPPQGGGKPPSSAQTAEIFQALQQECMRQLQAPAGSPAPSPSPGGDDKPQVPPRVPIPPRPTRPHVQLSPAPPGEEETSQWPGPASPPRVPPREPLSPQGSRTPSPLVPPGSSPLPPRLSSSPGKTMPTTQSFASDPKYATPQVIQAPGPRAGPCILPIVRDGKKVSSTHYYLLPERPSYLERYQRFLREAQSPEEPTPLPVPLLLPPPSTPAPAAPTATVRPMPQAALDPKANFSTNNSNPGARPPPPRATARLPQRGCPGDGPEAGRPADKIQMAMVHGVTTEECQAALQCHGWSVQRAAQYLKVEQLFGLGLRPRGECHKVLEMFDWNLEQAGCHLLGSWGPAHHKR
Structure (SMILES),remaining activity [%]
N#C/C(=C(/N)SC1C=CC=CC1)c1cccc(C(O)c2ccncc2)c1 (stereo not drawn),92.6
CCN(CC)CCCCN1c2ccccc2Oc2ccc(Cl)cc21,94.7
COc1cc2c(N3CCN(C(=O)Nc4ccc(OC(C)C)cc4)CC3)ncnc2cc1OCCCN1CCCCC1,92.7
C[C@@H](N)[C@H]1CC[C@H](C(=O)Nc2ccncc2)CC1,102
O=Nc1c(-c2c(O)[nH]c3ccccc23)[nH]c2ccccc12,40.6
CCCCc1c(-c2ccc(O)cc2)[nH]c2nccnc12,49.9
N#CC(c1ccnc(NCCc2cccnc2)n1)c1nc2ccccc2s1 (stereo not drawn),42.8
O=C(O)/C=C/c1cc(Br)c(Br)c(Br)c1Br,110
CC(C)n1cnc2c(Nc3cccc(Cl)c3)nc(NCCO)nc21,70.8
O=C1NC(=O)/C(=C/c2ccc3c(c2)OC(F)(F)O3)S1,93.2
CNc1cc2c(Nc3cccc(Br)c3)ncnc2cn1,30.3
COc1cc2c(Nc3ccc(Br)cc3F)ncnc2cc1OCC1CCN(C)CC1,85.4
Clc1ccc(Nc2nnc(Cc3ccncc3)c3ccccc23)cc1,91.7

# Block 2 — species: human; sample: microsomes or S9; tested at: 2 µM; time: 0.5 h
Structure (SMILES),remaining compound [%]
Cn1c(=O)c2c(nc(N3CCCCC3)n2CC/N=C2\CCCN2)n(C)c1=O,97.7
Cn1c(=O)c2c(-c3ccccc3Br)n(-c3ccc4c(c3)nc(CO)n4C)cc2n(C)c1=O,27
CCOc1cc(=O)n2c(c1C(=O)Nc1ccc(C)cc1Cl)CCCC2,71.6
CCc1ccc(-c2nnc(N3CCN(C(C)c4nccs4)CC3)n2CCCOC)cc1 (stereo not drawn),24.4
Cc1c(Br)c2ccccc2n1CC(=O)n1ncc(C#N)c1N,49
Cc1cccc(S(=O)(=O)NCCCC(C)C(=O)O)c1Br (stereo not drawn),> 100
Cc1cc(C)c2c(c1)C(Nc1ncc(S(N)(=O)=O)s1)CCO2 (stereo not drawn),70.3
O=C(O)c1cn2c(n1)C(c1ccccc1)N(C(=O)c1ccccc1)CC2 (stereo not drawn),55.7
COc1cc(=O)n(C)cc1C(=O)NC1CCCC1,> 99
CN(C(=O)CN1C(=O)COc2cc(Cl)c(Cl)cc21)C(CN1CCCC1)c1ccc(-c2ncccn2)cc1 (stereo not drawn),72.6
CC(C)CN/C(=N/S(=O)(=O)c1ccccc1)c1ccccc1,86.8
Cc1ccc2c(c1C)NC(=O)CC2c1ccc(O)cc1 (stereo not drawn),70.7
Cc1cc(C)c2c(n1)nn1c(-n3ccnc3)cc(C)nc21,41.4
COc1cc(=O)n(C)cc1C(=O)Nc1cc(C)on1,88
Cn1c(CN2CCc3ccccc3C2)cc(=O)c(O)c1CN1CCOC(c2ccccc2)C1 (stereo not drawn),79.2
Cc1nn(C)c2ncnc(N3CC(C)(C)N(C)C[C@@H]3C)c12,> 99.9
COC(=O)c1c(C)nc2n(CCN3CCOCC3)c3ccccc3n12,30.1
CC(C)S(=O)(=O)c1ccccc1Nc1c(Cl)cnc(Cl)c1Cl,58.4
Cc1nn(-c2ncnc3[nH]cnc23)c2c1C(c1cccc(OC(C)C)c1)CC(=O)N2 (stereo not drawn),1.38
Cc1ccc(NC(=O)C(Cc2cccc(C)c2)c2nnn[nH]2)cc1 (stereo not drawn),63.1

# Block 3 — cell line: mouse MPNST tumor cells; technique: high-content immunofluorescence imaging; item: nuclear SOX9; tested at: 10 µM; time: 12 h; notes: mean of 2 replicates; relative to: DMSO control; direction: higher = more nuclear SOX9
Compound,nuclear SOX9 intensity
C=CCN1CCc2nc(N)sc2CC1,107 % of DMSO
CN1CCCC1CCn1cc(C2=C(c3c[nH]c4ccccc34)C(=O)NC2=O)c2ccccc21 (stereo not drawn),113 % of DMSO
CCC(=N\O)/C(C)=C/c1ccc(F)cc1,108 % of DMSO
C[C@H]1CC(=O)Nc2cc(C(=O)NCCC3CC3)ccc2N1C(=O)N1CC2CC2C1 (stereo partly drawn),85.4 % of DMSO
CCOC(=O)C1=C(N2CCCCC2)C2(CC1=O)C(=O)N=C1C(C)=CC=CN12 (stereo not drawn),94.3 % of DMSO
CCOC(=O)C1Cc2ccccc2CN1C(=O)c1ccc(SC)s1 (stereo not drawn),105 % of DMSO
CN[C@@H]1[C@H](O)[C@H](NC)[C@H]2O[C@@]3(O)C(=O)C[C@@H](C)O[C@H]3O[C@@H]2[C@H]1O,95.5 % of DMSO
CN1C(=O)OC(C)(C)C1=O,106 % of DMSO and 95 % of DMSO
O=C(O)c1cccnc1,96.5 % of DMSO
O=c1[nH]c(=O)n([C@H]2C[C@H](O)[C@@H](CO)O2)cc1C(F)(F)F,135 % of DMSO and 144 % of DMSO
CC(C)[C@H](CO)Nc1nc(Nc2cccc(Cl)c2)c2ncn(C(C)C)c2n1,100 % of DMSO
Cc1cnc(-c2ccccc2C(C)C)nc1NCc1ccc(-n2ccnn2)cc1,94.7 % of DMSO
Oc1c(Cl)cc(Cl)c(Cl)c1Cc1c(O)c(Cl)cc(Cl)c1Cl,105 % of DMSO
CCOC(=O)n1ccn(C)c1=S,87.7 % of DMSO
Cc1onc(-c2c(F)cccc2Cl)c1C(=O)N[C@@H]1C(=O)N2[C@@H]1SC(C)(C)[C@@H]2C(=O)O,93.5 % of DMSO
Cc1ncc([N+](=O)[O-])n1CCO,91.7 % of DMSO and 108 % of DMSO

# Mixed results
Compound,target,assay,measurement,result
O=C([C@H]1C[C@H](O)CN1c1ccc(Cl)cc1)N1CC2COCC(C1)N2Cc1ccc(Cl)cc1,"DRD4 (Homo sapiens, UniProt P21917)","binding, radioligand binding",Ki,> 10000 nM
Cc1cc(C)c(-n2ccn3nc(-c4cccnc4)cc23)cc1NC(=O)c1cc(C#N)cc(S(F)(F)(F)(F)F)c1,"DDR1 (Homo sapiens, UniProt Q08345)","target engagement in cells, BRET",IC50,3 nM

# Repeated from above (block 1):
Structure (SMILES),remaining activity [%]
O=Nc1c(-c2c(O)[nH]c3ccccc23)[nH]c2ccccc12,40.6
CCCCc1c(-c2ccc(O)cc2)[nH]c2nccnc12,49.9
N#CC(c1ccnc(NCCc2cccnc2)n1)c1nc2ccccc2s1 (stereo not drawn),42.8
O=C(O)/C=C/c1cc(Br)c(Br)c(Br)c1Br,110
CC(C)n1cnc2c(Nc3cccc(Cl)c3)nc(NCCO)nc21,70.8
